# Published values pooled from the literature.
Structure (SMILES),assay,test system,setting,how to read,quantity,result
C[C@H]1CNCCCN1S(=O)(=O)c1cccc2cncc(F)c12,,healthy adult men,"ocular, 1 drop per eye twice daily, 8 days, adverse event",,subjects feeling hot,5.6%
Cc1c(Cl)c(C)[n+]([O-])c(Cl)c1-c1noc(-c2cc(O)c(O)c([N+](=O)[O-])c2)n1,,healthy subjects,"oral, dose not given, all subjects",,subjects with any TEAE,24.3%
O=C(O)CCC(=O)O.[2H]C([2H])([2H])Oc1cc(C)c2[nH]ccc2c1CN1CC[C@@H](C2CC2)C[C@H]1c1ccc(C(=O)O)cc1,multiple ascending dose,healthy Chinese subjects,200 mg once daily,,subjects with elevated cholesterol TEAE,12.5%
N[C@@H](Cc1c[nH]cn1)C(=O)O,"binding, equilibrium dialysis LC-MS",,"5 µM, thermostabilized A2AR-BRIL construct","baseline: no-protein control, direction not given",z-scored log2 fold change,0.242
Cn1cc(Nc2nc(N)nc(-c3cccc(-n4ccc5cc(C6CC6)cc(F)c5c4=O)c3CO)n2)cn1,,healthy subjects,"oral, 300 mg tablet, fasted",,subjects with vomiting,0%
C=CC(=O)NC1CCN(c2ncc3ncnc(Nc4ccc(Oc5ccc6c(c5)ncn6C)c(C)c4)c3n2)CC1,,healthy male volunteers,"intravenous then oral, dose not given, 1 week",,subjects with serious adverse events,0%
COc1c(N2C[C@@H]3CCCN[C@@H]3C2)c(F)cc2c(=O)c(C(=O)O)cn(C3CC3)c12,,healthy volunteers,400 mg,,subjects with dry mouth,0%
CC[C@H](C)[C@H](NC(=O)[C@H](Cc1ccccc1)NC(=O)[C@H](CCC(=O)O)NC(=O)[C@H](CCCCNC(=O)COCCOCCNC(=O)COCCOCCNC(=O)CC[C@H](NC(=O)CCCCCCCCCCCCCCCCC(=O)O)C(=O)O)NC(=O)[C@H](C)NC(=O)[C@H](C)NC(=O)[C@H](CCC(N)=O)NC(=O)CNC(=O)[C@H](CCC(=O)O)NC(=O)[C@H](CC(C)C)NC(=O)[C@H](Cc1ccc(O)cc1)NC(=O)[C@H](CO)NC(=O)[C@H](CO)NC(=O)[C@@H](NC(=O)[C@H](CC(=O)O)NC(=O)[C@H](CO)NC(=O)[C@@H](NC(=O)[C@H](Cc1ccccc1)NC(=O)[C@@H](NC(=O)CNC(=O)[C@H](CCC(=O)O)NC(=O)C(C)(C)NC(=O)[C@@H](N)Cc1cnc[nH]1)[C@@H](C)O)[C@@H](C)O)C(C)C)C(=O)N[C@@H](C)C(=O)N[C@@H](Cc1c[nH]c2ccccc12)C(=O)N[C@@H](CC(C)C)C(=O)N[C@H](C(=O)N[C@@H](CCCNC(=N)N)C(=O)NCC(=O)N[C@@H](CCCNC(=N)N)C(=O)NCC(=O)O)C(C)C,,Caucasian subjects,1.0 mg,,subjects with mild AEs,50%
CC[C@H](C)[C@H](N)C(=O)O,"binding, equilibrium dialysis LC-MS",,"5 µM, thermostabilized A2AR-BRIL construct","baseline: no-protein control, direction not given",z-scored log2 fold change,0.194
O=C(Nc1cnccc1Cl)N1CCN(Cc2ccc3c(c2)OC(F)(F)O3)CC1,multiple ascending dose,young men,"25 mg, at least 1 treatment-emergent event",,subjects with adverse events,83.3%

# For quick reference, copied from above:
Structure (SMILES),assay,test system,setting,how to read,quantity,result
C=CC(=O)NC1CCN(c2ncc3ncnc(Nc4ccc(Oc5ccc6c(c5)ncn6C)c(C)c4)c3n2)CC1,,healthy male volunteers,"intravenous then oral, dose not given, 1 week",,subjects with serious adverse events,0%
C[C@H]1CNCCCN1S(=O)(=O)c1cccc2cncc(F)c12,,healthy adult men,"ocular, 1 drop per eye twice daily, 8 days, adverse event",,subjects feeling hot,5.6%
